# Results gathered from unrelated publications.
# Parts stem from different laboratories: compare values within a part only. Positions count from the first letter of the parent shown.

# Set 1
# Target: CEP164, C-terminal peptide (human)
# Technique: DHFR complementation, deep sequencing
# Matrix: yeast
# Setting: single substitutions, model-inferred values
# Relative to: wild type
# Reading: higher = weaker binding
# Starting sequence: PDZK1, PDZ domain 2 (human); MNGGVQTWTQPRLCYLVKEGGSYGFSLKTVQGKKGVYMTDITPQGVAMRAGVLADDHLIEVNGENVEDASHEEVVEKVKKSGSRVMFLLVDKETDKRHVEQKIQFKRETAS; partner HNRVKVYRF
Change,binding free energy change [kcal/mol]
S22P,0.118
L88R,-0.153
L53Q,0.00566
V74C,0.142
V61S,1.35
V36C,-0.199
T9K,-0.119
L27H,1.58
L27E,1.35
F87T,1.52
F105M,-0.241
S70D,-0.142
L58Y,0.963
K34E,0.192
K77I,0.0418
G35M,0.691
V74F,0.769
Y23L,0.617
R107P,-0.168
V99H,-0.159
K80T,0.639
G4A,-0.0114
G20W,0.187
Y15C,-0.029

# Set 2
# Target: Interferon regulatory factor 5, full length, phosphomimetic (IRF5, Homo sapiens, UniProt Q13568-2, residues 1-514, K96S/S451D/S453D/S456D/S462D)
# Technique: protein-binding microarray
# Form: double-stranded DNA, one strand shown
# Matrix: in vitro
# Concentration: 250 nM
# Setting: 60-bp whole probe
# Together with: salmon DNA 0.4 mg/ml
# Relative to: random background probes
# Reading: higher = stronger binding
# Constant ends, left off below: GCCTAGCAC … GTCTTGATTCGCTTGACGCTGCTG
Sequence,log fluorescence
GACGATATCAGCATCGAGACGTGCTAG,0.826 z-score
TTAGGTTTCGGGTATCGGTTGGTGCTA,9.29 z-score
TCAACTTTAGGTTCCCAACTGTGCTAG,0.139 z-score
TTAGATTCCAGTCTCGATTAGTGCTAG,1.15 z-score
TTAGATTTCGGGTTTCGATTCGTGCTA,8 z-score
GACGGTCTAGGACTGGGGACGTGCTAG,-0.33 z-score
GACGGTTTCGACTTTCGTGACGTGCTA,6.59 z-score
GCCATTTTCCCTCCCTAATTGTGCTAG,0.911 z-score
TTCGGTTTCGACTATCGGTTAGTGCTA,9.96 z-score
GAGGGTTTCCTTTTCCTGACGTGCTAG,0.61 z-score
TCAGTTCTCTTTTATTTACTGTGCTAG,1.08 z-score
GGGCATTTGGAAAATGAAAATGTGCTA,0.19 z-score
GGGATTTTGTCCTCCCCTCCCGTGCTA,-0.493 z-score
ACATGCTTCGAGATCTCCGAGTGCTAG,-0.175 z-score
TTTGGACTGCTACTGCTTTAGTGCTAG,-0.235 z-score
TTAGATATCGGTACTGGATTAGTGCTA,4.32 z-score
TTAAGTTTCGGTTTCGGTTAGTGCTAG,12.1 z-score
TGATAAATCTTTGTTGGAGGGGTGCTA,0.488 z-score
TTAGGACTGCCTCTCCTTTAGTGCTAG,-0.403 z-score
TTAGGTATCGGGACTGGGTTAGTGCTA,1.63 z-score
GACTGTCTCGGTATCGGGACGTGCTAG,1.26 z-score
TCATTGATGGCTCTCTGACTGTGCTAG,-0.273 z-score

# Set 3
# Molecule: PhoQ, residues 284 288 289 292 302 303 SCCLKL
# Technique: Sort-seq
# Measured: YFP reporter
# Matrix: E. coli
# Setting: PhoQ-PhoP variant library
# Together with: 10 µM Mg2+
# Relative to: high Mg2+ state
# Reading: higher = stronger signaling
target,fold induction
"PhoP, residues 12 14 15 18 19 LHTVL (Escherichia coli, UniProt P23836)",0.946
"PhoP, residues 12 14 15 18 19 NQCAL (Escherichia coli, UniProt P23836)",7.18
"PhoP, residues 12 14 15 18 19 TQAML (Escherichia coli, UniProt P23836)",8.4

# Set 4
# Target: ATF1, bZIP domain (human)
# Technique: DHFR protein complementation
# Matrix: yeast
# Setting: single substitutions, most at no-binding floor
# Relative to: wild-type JUN-FOS pair
# Reading: higher = stronger binding
# Starting sequence: JUN, bZIP domain (human); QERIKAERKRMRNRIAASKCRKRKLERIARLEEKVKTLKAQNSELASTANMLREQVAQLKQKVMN; partner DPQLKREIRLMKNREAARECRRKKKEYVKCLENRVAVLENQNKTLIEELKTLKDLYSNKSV
Change,binding fitness [natural log]
V56G,-1.53
A40C,-1.58
A49N,-1.6
L52K,-1.57
T37V,-1.41
E54L,-1.52
A57H,-1.46
T48E,-1.43
L38Y,-1.47
M51T,-1.56
S47R,-1.52
E33L,-1.41
L31H,-1.53
E44H,-1.55
L45H,-1.49
L31N,-1.57
S43A,-1.44
Q41N,-1.55
L59R,-1.53
R30H,-1.22

# Set 5
# Target: CCND2, cyclin fold, Cln2 fusion (human)
# Technique: yeast growth competition, sequencing
# Matrix: yeast
# Setting: weak parent motif
# Relative to: not given
# Reading: higher = stronger binding
# Starting sequence: E2F1 docking peptide (human); PPVKRRLDLETDH
Change,normalised enrichment score
PDVKRRLDLETDH [P2D],0.359
PPVKRRLDLETDL [H13L],0.329
PPVKRTLDLETDH [R6T],0.113
PTVKRRLDLETDH [P2T],0.227
PPVKRRLDLETDP [H13P],-0.604
PPVKRRLKLETDH [D8K],0.0533
PPVKRRLDLETFH [D12F],0.428
PPVKRRLDLEQDH [T11Q],0.061
PPVKARADLETDH [R5A L7A],-0.119
PPVKRRLDLETEH [D12E],0.401
PPVKMRLDLETDH [R5M],0.117
PPVKRVLDLETDH [R6V],0.21
WPVKRRLDLETDH [P1W],0.388
KPVKRRLDLETDH [P1K],0.188
PPYKRRLDLETDH [V3Y],0.279
PNVKRRLDLETDH [P2N],0.212
GPVKRRLDLETDH [P1G],0.109
PPVKRRLDLETDE [H13E],0.384
PPVKRRLDLETCH [D12C],-0.0606
PPVKRRLFLETDH [D8F],0.25
PPVKRRLDLERDH [T11R],0.175
PPVYRRLDLETDH [K4Y],-0.62

# Set 6
# Target: Max-binding protein MNT, bHLH-zipper, MAX partner unstated (MNT, Homo sapiens, UniProt Q99583, residues 220-300)
# Technique: protein-binding microarray
# Form: double-stranded DNA, one strand shown
# Matrix: in vitro
# Concentration: not given
# Setting: k-mer, scored over probes, only values ≥0.25
# Reading: higher = stronger binding
# Target sequence (chain): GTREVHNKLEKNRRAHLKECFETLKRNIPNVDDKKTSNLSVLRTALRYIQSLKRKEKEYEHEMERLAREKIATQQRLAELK
Sequence,E-score
CGTGAACA,0.289
ACGCGTCT,0.271
AGCATGCT,0.42
AGCACGGG,0.324
ACGTGTAA,0.418
ATGTGACA,0.344
GACCATGC,0.421
AACCACGA,0.27
ACCGCATG,0.447
CATGAGGA,0.401
ACACCACG,0.316
CACCCCAC,0.355
CTGAGCAC,0.257
CACACATG,0.447
CCTCACGC,0.308
ACCACACG,0.362
ACACGGGG,0.381
ATAGCACG,0.365
ACTGCACG,0.362
CACGCTTC,0.389
CGCGCACA,0.277

# Set 7
# Target: ABI1, truncated, D143A, DHFR fusion (Arabidopsis thaliana)
# Technique: DHFR PCA, deep sequencing
# Matrix: yeast
# Setting: methotrexate growth selection, single substitutions
# Together with: (+)-ABA 1.4 µM
# Relative to: wild-type fitted maximum
# Reading: higher = stronger binding
# Starting sequence: PYL1, truncated, DHFR fusion (Arabidopsis thaliana); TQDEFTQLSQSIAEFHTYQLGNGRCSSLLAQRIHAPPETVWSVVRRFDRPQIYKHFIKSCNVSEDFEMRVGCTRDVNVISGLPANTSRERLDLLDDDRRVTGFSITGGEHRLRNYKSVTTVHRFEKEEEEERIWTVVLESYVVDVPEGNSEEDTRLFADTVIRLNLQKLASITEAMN
Change,relative binding score
D159K,-16.5%
R45L,-4.42%
Q51V,-0.553%
Y141G,-4.26%
I52C,32.3%
V76D,-2.59%
H55I,73.6%
V78H,25.5%
I52D,58.5%
R111K,23.1%
I12H,22.6%
L91K,3.62%
S104I,1.77%
G107S,24.4%
P50E,-18.2%
M68E,-1.48%
A175T,48.9%
L8M,39.7%

# Some of these lines once more (set 7):
Change,relative binding score
I52C,32.3%
R111K,23.1%
I12H,22.6%
M68E,-1.48%
S104I,1.77%
Q51V,-0.553%
P50E,-18.2%
G107S,24.4%
